{"data": "Measured values pooled from the literature", "U2AF2": "U2AF2 148-342 (Homo sapiens, UniProt P26368)", "B1": "Aralar1, human; sequence looked up; chain AVKVQTTKRGDPHELRNIFLQYASTEVDGERYMTPEDFVQRYLGLYNDPNSNPKIVQLLAGVADQTKDGLISYQEFLAFESVLCAPDSMFIVAFQLFDKSGNGEVTFENVKEIFGQTIIHHHIPFNWDCEFIRLHFGHNRKKHLNYTEFTQFLQELQLEHARQAFALKDKSKSGMISGLDFSDIMVTIRSHMLTPFVEENLVSAAGGSISHQVSFSYFNAFNSLLNNMELVRKIYSTLAGTRKDVEVTKEEFAQSAIRYGQVTPLEIDILYQLADLYNASGRLTLADIERIAPLAEGALPYNLAELQRQQSPGLGRPIWLQIAESAYRFTLGSVAGAVGATAVYPIDLVKTRMQNQRGSGSVVGELMYKNSFDCFKKVLRYEGFFGLYRGLIPQLIGVAPEKAIKLTVNDFVRDKFTRRDGSVPLPAEVLAGGCAGGSQVIFTNPLEIVKIRLQVAGEITTGPRVSALNVLRDLGIFGLYKGAKACFLRDIPFSAIYFPVYAHCKLLLADENGHVGGLNLLAAGAMAGVPAASLVTPADVIKTRLQVAARAGQTTYSGVIDCFRKILREEGPSAFWKGTAARVFRSSPQFGVTLVTYELLQRWFYIDFGGLKPAGSEPTPKSRIADLPPANPDHIGGYRLATATFAGIENKFGLYLPKFKSPSVAVVQPKAAVAATQ", "B2": "phosphoglycerate mutase 1, human; sequence looked up; chain AAYKLVLIRHGESAWNLENRFSGWYDADLSPAGHEEAKRGGQALRDAGYEFDICFTSVQKRAIRTLWTVLDAIDQMWLPVVRTWRLNERHYGGLTGLNKAETAAKHGEAQVKIWRRSYDVPPPPMEPDHPFYSNISKDRRYADLTEDQLPSCESLKDTIARALPFWNEEIVPQIKEGKRVLIAAHGNSLRGIVKHLEGLSEEAIMELNLPTGIPIVYELDKNLKPIKPMQFLGDEETVRKAMEAVAAQGKAKK", "note": "Lines come from different studies, so protocols differ. Several values in a cell are separate wells, animals, samples, runs or records. ± gives the spread as reported.", "chain of UniProt P26368 (whole entry, looked up)": "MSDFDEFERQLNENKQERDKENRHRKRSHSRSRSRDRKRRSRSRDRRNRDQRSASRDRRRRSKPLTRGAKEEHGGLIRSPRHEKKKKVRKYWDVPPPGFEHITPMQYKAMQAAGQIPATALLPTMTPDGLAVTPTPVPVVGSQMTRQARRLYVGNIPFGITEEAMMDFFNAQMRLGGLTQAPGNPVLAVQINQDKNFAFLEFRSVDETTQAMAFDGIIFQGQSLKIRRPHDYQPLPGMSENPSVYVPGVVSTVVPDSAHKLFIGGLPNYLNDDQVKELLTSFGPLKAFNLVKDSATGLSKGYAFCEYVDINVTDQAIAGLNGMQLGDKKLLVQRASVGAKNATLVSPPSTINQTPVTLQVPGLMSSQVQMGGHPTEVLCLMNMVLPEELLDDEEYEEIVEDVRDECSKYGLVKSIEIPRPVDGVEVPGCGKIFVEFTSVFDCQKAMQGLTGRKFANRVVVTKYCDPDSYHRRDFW", "chain of UniProt P13393 (whole entry, looked up)": "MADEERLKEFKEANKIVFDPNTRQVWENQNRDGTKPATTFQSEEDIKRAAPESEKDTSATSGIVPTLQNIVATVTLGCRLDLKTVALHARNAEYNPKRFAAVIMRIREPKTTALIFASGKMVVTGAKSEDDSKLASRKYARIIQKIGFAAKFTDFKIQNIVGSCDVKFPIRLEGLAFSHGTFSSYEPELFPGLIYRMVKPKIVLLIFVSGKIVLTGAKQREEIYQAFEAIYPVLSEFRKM", "chain of UniProt P21980 (whole entry, looked up)": "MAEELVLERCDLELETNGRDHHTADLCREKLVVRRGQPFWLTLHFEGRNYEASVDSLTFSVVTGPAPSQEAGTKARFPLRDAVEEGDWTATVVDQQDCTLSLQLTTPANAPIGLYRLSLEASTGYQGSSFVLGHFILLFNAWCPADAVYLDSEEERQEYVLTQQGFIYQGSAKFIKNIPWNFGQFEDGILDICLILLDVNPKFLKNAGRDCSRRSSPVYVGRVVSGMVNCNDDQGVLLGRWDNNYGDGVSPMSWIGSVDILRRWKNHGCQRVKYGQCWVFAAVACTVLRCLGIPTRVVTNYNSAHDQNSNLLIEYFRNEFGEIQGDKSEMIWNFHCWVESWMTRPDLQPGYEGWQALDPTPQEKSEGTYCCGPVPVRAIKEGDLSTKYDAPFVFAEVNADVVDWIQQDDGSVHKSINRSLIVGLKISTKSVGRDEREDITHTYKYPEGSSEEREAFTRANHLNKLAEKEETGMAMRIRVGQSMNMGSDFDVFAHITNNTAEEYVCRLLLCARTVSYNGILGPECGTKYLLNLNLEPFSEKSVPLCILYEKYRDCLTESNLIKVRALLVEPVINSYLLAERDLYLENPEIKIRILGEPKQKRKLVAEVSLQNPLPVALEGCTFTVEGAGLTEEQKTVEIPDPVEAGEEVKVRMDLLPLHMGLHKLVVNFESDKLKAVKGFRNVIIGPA"}
{"Molecule": "Peginesatide", "target or system": "UT7/EPO", "test": "tyrosine phosphorylation, LC-MS/MS phosphoproteomics, GluC, refers to: GRB2 tyrosine 52", "setting": "10 nM, 15 min, with: 10 U/mL EPO", "scale": "relative to: vehicle", "measurement": "phosphorylation level", "result": "4.9 fold"}
{"Molecule": "GGGAGCAGGAGAGAGGUCAGAUGGUCGAGACUUUGAGGGUUCUCCUGCUGUAACCUAUGCGUGCUAGUGUGA (ssRNA; 2'-fluoro pyrimidines)", "target or system": "TGM2 2-687 (Homo sapiens, UniProt P21980)", "test": "SPR", "system": "RNA", "setting": "with: MgCl2 5 mM", "scale": "higher = more binding", "measurement": "relative binding", "result": "59.8 RU"}
{"Molecule": "B1 (Aralar1, human)", "target or system": "PP6C (human)", "test": "co-immunoprecipitation, IP-MS", "system": "CYB5R4 knockout cells", "setting": "concentration not given", "scale": "relative to: CYB5R4 knockout over parental", "measurement": "log2 fold change", "result": -0.0363}
{"Molecule": "MTVCNASQRQAHAQATAVSL", "target or system": "HCC1171", "test": "phage binding", "system": "peptide", "scale": "relative to: targeting over control phage", "measurement": "selectivity ratio", "result": "0.47 ± 0.27"}
{"Molecule": "UAUGAGUGC (ssRNA)", "target or system": "U2AF2", "test": "sequencing of bound RNA", "system": "RNA", "setting": "motif only", "measurement": "Kd", "result": "3460 nM"}
{"Molecule": "cotadutide", "test": "metabolomics, refers to: hepatic isoleucine", "system": "ob/ob mice on AMLN diet, NASH model, liver", "setting": "dose not given", "measurement": "metabolite level", "result": "0.99 ± 0.06 scaled intensity"}
{"Molecule": "GSGAGKETYY", "target or system": "construct, MBP fusion, human SCRIB, PDZ 3-4", "test": "surface plasmon resonance", "system": "peptide", "setting": "concentration not given", "scale": "higher = stronger binding", "measurement": "normalised SPR binding response", "result": "2.5 normalised RU"}
{"Molecule": "B2", "target or system": "CYB5R4 knockout human cells", "test": "PP6 interaction, 3xFLAG-PP6C IP-MS", "setting": "concentration not given", "scale": "relative to: CYB5R4 KO over parental", "measurement": "log2 fold change", "result": 0.96}
{"Molecule": "CTCAGGAATTCCTACAAAGTAATGTGGAGCTCAGTTCAAGTCAATCGGTCC (dsDNA; 5'-amino-C6 primer)", "target or system": "SPT15 full length assumed (Saccharomyces cerevisiae, UniProt P13393)", "test": "array", "system": "double-stranded DNA, one strand shown", "setting": "TBP alone", "measurement": "Kd", "result": "42.5 ± 3.45 nM"}
{"Molecule": "colistin", "target or system": "Pseudomonas aeruginosa", "system": "PA1049 PER-producing isolate", "measurement": "MIC", "result": "2 µg/mL"}
{"Molecule": "milbemycin oxime", "target or system": "Saccharomyces cerevisiae", "test": "cell growth", "system": "Pdr5 deleted, Cdr1 overexpressed", "setting": "2^-7.966 µg/mL", "measurement": "OD600", "result": "1.02 and 0.969 and 0.959"}
{"Molecule": "human desmoplakin", "target or system": "CYB5R4 knockout human cells", "test": "PP4 interaction, 3xFLAG-PP4C IP-MS", "setting": "concentration not given", "scale": "relative to: CYB5R4 KO over parental", "measurement": "log2 fold change", "result": 0.72}
{"Molecule": "EKPIDSETKM", "target or system": "construct, MBP fusion, human SCRIB, PDZ 3-4", "test": "automated holdup", "system": "peptide, crude extract", "setting": "concentration not given, uncorrected, unit not given", "scale": "relative to: biotin control resin, higher = stronger binding", "measurement": "binding intensity", "result": 0.156}
{"Molecule": "colistin", "target or system": "Acinetobacter baumannii", "test": "broth microdilution", "system": "clinical isolate RKI-No_4/15", "measurement": "MIC", "result": "≤ 0.5 µg/mL"}
{"Molecule": "QDEKVKESYV", "target or system": "construct, MBP fusion, human SCRIB, PDZ 3-4", "test": "surface plasmon resonance", "system": "peptide", "setting": "concentration not given", "scale": "higher = stronger binding", "measurement": "normalised SPR binding response", "result": "32.9 normalised RU"}
{"Molecule": "human DIP2A", "target or system": "CYB5R4 knockout human cells", "test": "PP4 interaction, 3xFLAG-PP4C IP-MS", "setting": "concentration not given", "scale": "relative to: CYB5R4 KO over parental", "measurement": "log2 fold change", "result": 2.15}
{"Molecule": "CUUCACCUA (ssRNA)", "target or system": "U2AF2", "test": "sequencing of bound RNA", "system": "RNA", "setting": "motif only", "measurement": "Kd", "result": "1150 nM"}
{"note": "Excerpt of the above:"}
{"Molecule": "milbemycin oxime", "target or system": "Saccharomyces cerevisiae", "test": "cell growth", "system": "Pdr5 deleted, Cdr1 overexpressed", "setting": "2^-7.966 µg/mL", "measurement": "OD600", "result": "1.02 and 0.969 and 0.959"}
{"Molecule": "human desmoplakin", "target or system": "CYB5R4 knockout human cells", "test": "PP4 interaction, 3xFLAG-PP4C IP-MS", "setting": "concentration not given", "scale": "relative to: CYB5R4 KO over parental", "measurement": "log2 fold change", "result": 0.72}
